Results from different studies.
Several values in a cell are separate wells, animals, samples, runs or records. ± marks the error that the study gave.

[2H]C([2H])([18F])[C@]([2H])(N)C(=O)O
tumour-to-muscle ratio (PET; athymic nude mice, U-87 MG; dose not given, 60 min post-injection; relative to: tumour over muscle): 1.23 ± 0.23

CC(C)=CCC/C(C)=C\CCn1cc(CC(P(=O)(O)O)P(=O)(O)O)nn1
fraction unbound (equilibrium dialysis; mouse plasma; 1 µg/mL, 4 h): 0.063

CC[C@H](C)[C@H](NC(=O)[C@H](CCCCN)NC(=O)CNC(=O)[C@H](CC(C)C)NC(=O)[C@H](Cc1ccccc1)NC(=O)[C@H](CCCCN)NC(=O)[C@H](CO)NC(=O)[C@H](Cc1ccccc1)NC(=O)[C@H](Cc1c[nH]c2ccccc12)NC(=O)[C@H](CCC(N)=O)NC(=O)[C@@H](NC(=O)[C@H](Cc1ccccc1)NC(=O)CCCCCNC(=O)CN1CCN(CC(=O)O)CCN(CC(=O)O)CCN(CC(=O)O)CC1)C(C)C)C(=O)N[C@@H](CCC(=O)O)C(=O)N1CCC[C@H]1C(=O)N[C@@H](CC(=O)O)C(=O)N[C@H](C(=O)N[C@@H](CO)C(=O)N[C@@H](CCC(N)=O)C(=O)N[C@H](C(=O)N[C@@H](CCC(N)=O)C(=O)N[C@@H](CC(=O)O)C(=O)N1CCC[C@H]1C(=O)N[C@@H](CC(N)=O)C(=O)N[C@@H](CC(=O)O)C(=O)N[C@@H](CCC(N)=O)C(=O)N[C@@H](Cc1ccc(O)cc1)C(=O)N[C@@H](CCC(=O)O)C(=O)N1CCC[C@H]1C(=O)N[C@@H](Cc1ccccc1)C(=O)O)C(C)C)C(C)C [copper-64 labelled]
tissue uptake (BALB/c mice, male, CT26 tumour-bearing, bone; 2 h, vehicle-treated): 0.53 ± 0.1 %ID/g

C=Cc1c(C)c2cc3nc(c(CC(=O)O)c4[nH]c(cc5nc(cc1[nH]2)C(C)=C5CC)c(C)c4C(=O)O)[C@@H](CCC(=O)NCCCC[C@H](NC(C)=O)C(=O)N[C@@H](Cc1ccccc1)C(=O)N[C@@H](Cc1ccccc1)C(=O)N[C@H](C(=O)N[C@@H](CC(C)C)C(=O)N[C@@H](CCCCN)C(=O)N[C@@H](CO)C(=O)NCC(=O)N[C@@H](CCC(N)=O)C(=O)N[C@@H](Cc1ccc(O)cc1)C(=O)N[C@@H](C)C(=O)N[C@@H](CO)C(=O)N[C@@H](Cc1ccc(O)cc1)C(=O)N[C@@H](Cc1c[nH]cn1)C(=O)N[C@@H](CS)C(=O)N[C@@H](Cc1c[nH]c2ccccc12)C(=O)N[C@@H](CS)C(=O)N[C@@H](Cc1c[nH]c2ccccc12)C(=O)N[C@@H](CCCNC(=N)N)C(=O)N[C@@H](CC(=O)O)C(=O)N1CCC[C@H]1C(=O)NCC(=O)N[C@@H](CCCNC(=N)N)C(=O)N[C@@H](CO)C(=O)NCC(=O)NCC(=O)N[C@@H](CO)C(=O)N[C@@H](CCCCN)C(N)=O)C(C)C)[C@@H]3C
blood concentration (mouse, blood; 0 h): 187 µg/mL

CC(C)[C@@H]1NC(=O)CNC(=O)[C@H](CC(N)=O)NC(=O)[C@H](CCCNC(=N)N)NC(=O)[C@H](Cc2ccc(O)cc2)NC(=O)[C@H](C(C)C)NC(=O)[C@@H](NC(=O)[C@@H](NC(=O)[C@H](CC(N)=O)NC(=O)[C@H](Cc2c[nH]c3ccccc23)NC(=O)[C@H](C)NC(=O)[C@H](Cc2ccccc2)NC(=O)CNC(=O)[C@H](CCCCN)NC(=O)[C@H](Cc2ccccc2)NC(=O)[C@H](Cc2ccccc2)NC(=O)[C@H](CCCCN)NC(=O)OCC2c3ccccc3-c3ccccc32)C(C)C)CSSC[C@@H](C(=O)N[C@@H](Cc2c[nH]cn2)C(=O)N[C@@H](CCCNC(=N)N)C(=O)N[C@@H](CCCNC(=N)N)C(=O)N[C@@H](C)C(=O)N[C@@H](CC(N)=O)C(N)=O)NC(=O)[C@H](C(C)C)NC(=O)[C@H](CCCNC(=N)N)NC1=O
monocytes (ICR mice, blood; intraperitoneal, 5 mg/kg, day 5): 2.92 ± 0.22%

N#[11C]c1ccc(-c2csc(NN=C3CCCC3)n2)cc1
uptake in small intestine with contents (C57BL/6 mouse, male; intravenous, 3 MBq, 30 min): 39.2 %ID/g

COCC1CN(C2CCN(c3cc(OC)c(Nc4ncc(Br)c(Nc5ccc6c(c5P(C)(C)=O)OCCO6)n4)cc3C)CC2)C1
treatment-related deaths (human patients; oral, 150 mg once daily): 0%

CCCCCCCCCCCCCCCC(=O)N[C@@H](CCC(=O)NCCOCCOCCC(=O)NCCOCCOCCC(=O)NCCCC[C@H](NC(=O)[C@H](CC(=O)O)NC(=O)[C@H](CC(C)C)NC(=O)[C@H](Cc1ccc(O)cc1)NC(=O)[C@H](CCCCN)NC(=O)[C@H](CO)NC(=O)[C@H](Cc1ccc(O)cc1)NC(=O)[C@H](CC(=O)O)NC(=O)[C@H](CO)NC(=O)[C@@H](NC(=O)[C@H](Cc1ccccc1)NC(=O)[C@@H](NC(=O)CNC(=O)[C@H](CCC(N)=O)NC(=O)[C@@H](CO)NC(=O)[C@@H](N)Cc1c[nH]cn1)[C@@H](C)O)[C@@H](C)O)C(=O)N[C@@H](CCCNC(=N)N)C(=O)N[C@@H](CCCNC(=N)N)C(=O)N[C@@H](C)C(=O)N[C@@H](CCC(N)=O)C(=O)N[C@@H](CC(=O)O)C(=O)N[C@@H](Cc1ccccc1)C(=O)N[C@H](C(=O)N[C@@H](CCC(N)=O)C(=O)N[C@@H](Cc1c[nH]c2ccccc12)C(=O)N[C@@H](CC(C)C)C(=O)N[C@@H](CC(C)C)C(=O)N[C@@H](CC(N)=O)C(=O)N[C@H](C(=O)NCC(=O)NCC(=O)N1CCC[C@H]1C(=O)N[C@@H](CO)C(=O)N[C@@H](CO)C(=O)NCC(=O)N[C@@H](C)C(=O)N1CCC[C@H]1C(=O)N1CCC[C@H]1C(=O)N1CCC[C@H]1C(=O)N[C@@H](CO)C(N)=O)[C@@H](C)O)C(C)C)C(=O)O
total bilirubin (rhesus monkey, male; subcutaneous, 20 µg/kg once daily, 28 days): 4 ± 1.3 µmol/L

CSCC[C@H](N)C(=O)N[C@@H](C)C(=O)N[C@@H](CCCNC(=N)N)C(=O)N[C@@H](CCCNC(=N)N)C(=O)N[C@@H](CC(=O)O)C(=O)N[C@@H](CCCCN)C(=O)N[C@H](C(=O)N[C@@H](CC(=O)O)C(=O)N[C@@H](Cc1ccccc1)C(=O)N[C@@H](C)C(=O)N[C@@H](CCCNC(=N)N)C(=O)N[C@@H](CCCNC(=N)N)C(=O)N[C@@H](CCCNC(=N)N)C(=O)N[C@@H](CCCNC(=N)N)C(=O)NCCCCCC(=O)NCCCCC(NC(=O)CCCCCNC(=O)[C@H](CCCNC(=N)N)NC(=O)[C@H](CCCNC(=N)N)NC(=O)[C@H](CCCNC(=N)N)NC(=O)[C@H](CCCNC(=N)N)NC(=O)[C@H](C)NC(=O)[C@H](Cc1ccccc1)NC(=O)[C@H](CC(=O)O)NC(=O)[C@@H](NC(=O)[C@H](CCCCN)NC(=O)[C@H](CC(=O)O)NC(=O)[C@H](CCCNC(=N)N)NC(=O)[C@H](CCCNC(=N)N)NC(=O)[C@H](C)NC(=O)[C@@H](N)CCSC)[C@@H](C)O)C(=O)NCCCCC(NC(=O)C(CCCCNC(=O)CCCCCNC(=O)[C@H](CCCNC(=N)N)NC(=O)[C@H](CCCNC(=N)N)NC(=O)[C@H](CCCNC(=N)N)NC(=O)[C@H](CCCNC(=N)N)NC(=O)[C@H](C)NC(=O)[C@H](Cc1ccccc1)NC(=O)[C@H](CC(=O)O)NC(=O)[C@@H](NC(=O)[C@H](CCCCN)NC(=O)[C@H](CC(=O)O)NC(=O)[C@H](CCCNC(=N)N)NC(=O)[C@H](CCCNC(=N)N)NC(=O)[C@H](C)NC(=O)[C@@H](N)CCSC)[C@@H](C)O)NC(=O)CCCCCNC(=O)[C@H](CCCNC(=N)N)NC(=O)[C@H](CCCNC(=N)N)NC(=O)[C@H](CCCNC(=N)N)NC(=O)[C@H](CCCNC(=N)N)NC(=O)[C@H](C)NC(=O)[C@H](Cc1ccccc1)NC(=O)[C@H](CC(=O)O)NC(=O)[C@@H](NC(=O)[C@H](CCCCN)NC(=O)[C@H](CC(=O)O)NC(=O)[C@H](CCCNC(=N)N)NC(=O)[C@H](CCCNC(=N)N)NC(=O)[C@H](C)NC(=O)[C@@H](N)CCSC)[C@@H](C)O)C(N)=O)[C@@H](C)O (stereo partly drawn)
tissue distribution (C57BL/6 mouse female, skull; dose not given, 6 h; relative to: total): 9.78% and 15.9% and 16%

CC(C)(C)C(=O)OCOP(=O)(OCOC(=O)C(C)(C)C)C1CCCN(O)C1=O (stereo not drawn)
log TGI (SN12C): -4.85 log M

CCCC[C@H]1C(=O)N(C)[C@@H](CCCC)C(=O)N[C@@H](CCCNC(=O)CN2CCN(CC(=O)O)CCN(CC(=O)O)CCN(CC(=O)O)CC2)C(=O)N[C@H](C(=O)NCC(N)=O)CSCC(=O)N[C@@H](Cc2ccc(O)cc2)C(=O)N(C)[C@@H](C)C(=O)N[C@@H](CC(N)=O)C(=O)N2CCC[C@H]2C(=O)N[C@@H](Cc2c[nH]cn2)C(=O)N[C@@H](CC(C)C)C(=O)N(C)CC(=O)N[C@@H](Cc2c[nH]c3ccccc23)C(=O)N[C@@H](CO)C(=O)N[C@@H](Cc2c[nH]c3ccccc23)C(=O)N1C [gallium-68 labelled]
tissue uptake (NOD/SCID mice, CHO-hPD-L1 xenograft, skin; 60 min, atezolizumab 10 mg/kg pretreatment): 4.4 ± 0.54 %ID/g

O=S(=O)(c1ccc2c(c1)OCO2)n1cc(CCCCN2CCC(=C(c3ccc(F)c(F)c3)c3ccc(F)c(F)c3)CC2)nn1
tolerated dose range (dose escalation, refers to: body weight; mouse): 10 to 50 mg/kg

N=C(N)NCCC[C@@H](NC(=O)[C@H](N)Cc1c[nH]c2ccccc12)C(=O)N[C@H](CCCCN)C(=O)N[C@H](Cc1c[nH]c2ccccc12)C(=O)N[C@H](CCCNC(=N)N)C(=O)N[C@H](CCCCN)C(=O)N[C@H](Cc1c[nH]c2ccccc12)C(=O)N[C@H](CCCNC(=N)N)C(=O)N[C@H](CCCCN)C(=O)N[C@H](Cc1c[nH]c2ccccc12)C(=O)N[C@H](CCCNC(=N)N)C(=O)N[C@H](CCCCN)C(N)=O
Kim-1 level (mouse, urine; 20 mg/kg): 51 ng/mL

O=C1NC2(CC2)COc2ncc(F)cc2[C@H]2COCCN2c2ccn3ncc1c3n2
organ-to-body weight ratio (Sprague-Dawley rat, female, spleen; oral, 5 mg/kg/day, 4 weeks dosing, end of recovery): 0.257 ± 0.042%

N=C(N)NCCC[C@H](NC(=O)[C@H](CCCNC(=N)N)NC(=O)[C@H](CCCNC(=N)N)NC(=O)[C@H](CCC(N)=O)NC(=O)[C@H](CCCNC(=N)N)NC(=O)[C@H](CCCNC(=N)N)NC(=O)[C@H](CCCCN)NC(=O)[C@H](CCCCN)NC(=O)[C@H](CCCNC(=N)N)NC(=O)CNC(=O)[C@H](Cc1ccc(O)cc1)NC(=O)[C@H](Cc1ccccc1)NC(=O)[C@H](Cc1ccccc1)NC(=O)[C@H](Cc1ccccc1)NC(=O)OCC1c2ccccc2-c2ccccc21)C(=O)O
health score (C57BL/6 mice; intraperitoneal, 20 mg/kg, 48 h; direction not given): 5

CC(=O)NCCCC[C@@H]1NC(=O)[C@H](Cc2c[nH]c3c(C)cccc23)NC(=O)[C@H]([C@@H](C)O)NC(=O)[C@H](CC(N)=O)NC(=O)[C@@H](NC(C)=O)C(C)(C)SSC(C)(C)[C@@H](C(=O)N[C@@H](Cc2ccc(OCCN)cc2)C(=O)N[C@@H](Cc2ccc3ccccc3c2)C(=O)NC2(C(=O)N[C@@H](CCC(=O)O)C(=O)N[C@@H](CC(N)=O)C(=O)N[C@@H](Cc3cccnc3)C(=O)N(C)CC(N)=O)CCOCC2)NC1=O
tissue to plasma ratio (cynomolgus monkey, sacroiliac ligament; intravenous, 1 mg/kg): 96%

C=CC(=O)Nc1cccc(Cn2ncc3cnc(Nc4cnn(CCOC)c4)nc32)c1
blood MCV (female Sprague-Dawley rat; oral, 180 mg/kg/day, day 28, 28-day subacute toxicity): 60.7 ± 2.74 fL

CN1Cc2cc(Cl)ccc2-n2c(nnc2C2CCN(c3cccc([18F])n3)CC2)C1
total volume of distribution (PET two-tissue compartment model; rhesus monkey, hippocampus; intravenous, dose not given, 70 min scan, baseline scan): 1.01 ± 0.3 mL/cm3

Repeated from above:
[2H]C([2H])([18F])[C@]([2H])(N)C(=O)O
tumour-to-muscle ratio (PET; athymic nude mice, U-87 MG; dose not given, 60 min post-injection; relative to: tumour over muscle): 1.23 ± 0.23

CC(C)(C)C(=O)OCOP(=O)(OCOC(=O)C(C)(C)C)C1CCCN(O)C1=O (stereo not drawn)
log TGI (SN12C): -4.85 log M
